Assay results pooled from the literature.
Lines come from different studies, so protocols differ.
CCT4: CCT4 (Homo sapiens, UniProt P50991)
B1: human CCT2; sequence looked up; chain ASLSLAPVNIFKAGADEERAETARLTSFIGAIAIGDLVKSTLGPKGMDKILLSSGRDASLMVTNDGATILKNIGVDNPAAKVLVDMSRVQDDEVGDGTTSVTVLAAELLREAESLIAKKIHPQTIIAGWREATKAAREALLSSAVDHGSDEVKFRQDLMNIAGTTLSSKLLTHHKDHFTKLAVEAVLRLKGSGNLEAIHIIKKLGGSLADSYLDEGFLLDKKIGVNQPKRIENAKILIANTGMDTDKIKIFGSRVRVDSTAKVAEIEHAEKEKMKEKVERILKHGINCFINRQLIYNYPEQLFGAAGVMAIEHADFAGVERLALVTGGEIASTFDHPELVKLGSCKLIEEVMIGEDKLIHFSGVALGEACTIVLRGATQQILDEAERSLHDALCVLAQTVKDSRTVYGGGCSEMLMAHAVTQLANRTPGKEAVAMESYAKALRMLPTIIADNAGYDSADLVAQLRAAHSEGNTTAGLDMREGTIGDMAILGITESFQVKRQVLLSAAEAAEVILRVDNIIKAAPRKRVPDHHPC
B2: human ribophorin I; sequence looked up; chain ASSEAPPLINEDVKRTVDLSSHLAKVTAEVVLAHLGGGSTSRATSFLLALEPELEARLAHLGVQVKGEDEEENNLEVRETKIKGKSGRFFTVKLPVALDPGAKISVIVETVYTHVLHPYPTQITQSEKQFVVFEGNHYFYSPYPTKTQTMRVKLASRNVESYTKLGNPTRSEDLLDYGPFRDVPAYSQDTFKVHYENNSPFLTITSMTRVIEVSHWGNIAVEENVDLKHTGAVLKGPFSRYDYQRQPDSGISSIRSFKTILPAAAQDVYYRDEIGNVSTSHLLILDDSVEMEIRPRFPLFGGWKTHYIVGYNLPSYEYLYNLGDQYALKMRFVDHVFDEQVIDSLTVKIILPEGAKNIEIDSPYEISRAPDELHYTYLDTFGRPVIVAYKKNLVEQHIQDIVVHYTFNKVLMLQEPLLVVAAFYILFFTVIIYVRLDFSITKDPAAEARMKVACITEQVLTLVNKRIGLYRHFDETVNRYKQSRDISTLNSGKKSLETEHKALTSEIALLQSRLKTEGSDLCDRVSEMQKLDAQVKELVLKSAVEAERLVAGKLKKDTYIENEKLISGKRQELVTKIDHILDAL
UniProt P62937, sequence (whole entry, looked up): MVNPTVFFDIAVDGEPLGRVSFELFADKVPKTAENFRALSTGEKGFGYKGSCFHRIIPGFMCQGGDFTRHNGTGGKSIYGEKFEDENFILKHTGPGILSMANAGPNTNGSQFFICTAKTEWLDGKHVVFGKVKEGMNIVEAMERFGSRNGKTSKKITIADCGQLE
UniProt O00330, sequence (whole entry, looked up): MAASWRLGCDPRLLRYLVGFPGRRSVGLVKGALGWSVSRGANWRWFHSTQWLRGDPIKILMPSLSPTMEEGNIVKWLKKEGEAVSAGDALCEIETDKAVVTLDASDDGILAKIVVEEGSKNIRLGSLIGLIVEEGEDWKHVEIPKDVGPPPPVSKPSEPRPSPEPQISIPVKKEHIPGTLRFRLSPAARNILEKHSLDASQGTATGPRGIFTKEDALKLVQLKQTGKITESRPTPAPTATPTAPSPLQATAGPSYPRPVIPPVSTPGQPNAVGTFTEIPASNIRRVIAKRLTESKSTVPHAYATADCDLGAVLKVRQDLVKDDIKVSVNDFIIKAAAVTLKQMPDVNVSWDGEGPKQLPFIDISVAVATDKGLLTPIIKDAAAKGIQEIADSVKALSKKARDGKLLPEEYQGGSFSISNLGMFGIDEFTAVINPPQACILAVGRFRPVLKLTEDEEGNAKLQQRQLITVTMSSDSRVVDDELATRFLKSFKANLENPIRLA
UniProt P10515, sequence (whole entry, looked up): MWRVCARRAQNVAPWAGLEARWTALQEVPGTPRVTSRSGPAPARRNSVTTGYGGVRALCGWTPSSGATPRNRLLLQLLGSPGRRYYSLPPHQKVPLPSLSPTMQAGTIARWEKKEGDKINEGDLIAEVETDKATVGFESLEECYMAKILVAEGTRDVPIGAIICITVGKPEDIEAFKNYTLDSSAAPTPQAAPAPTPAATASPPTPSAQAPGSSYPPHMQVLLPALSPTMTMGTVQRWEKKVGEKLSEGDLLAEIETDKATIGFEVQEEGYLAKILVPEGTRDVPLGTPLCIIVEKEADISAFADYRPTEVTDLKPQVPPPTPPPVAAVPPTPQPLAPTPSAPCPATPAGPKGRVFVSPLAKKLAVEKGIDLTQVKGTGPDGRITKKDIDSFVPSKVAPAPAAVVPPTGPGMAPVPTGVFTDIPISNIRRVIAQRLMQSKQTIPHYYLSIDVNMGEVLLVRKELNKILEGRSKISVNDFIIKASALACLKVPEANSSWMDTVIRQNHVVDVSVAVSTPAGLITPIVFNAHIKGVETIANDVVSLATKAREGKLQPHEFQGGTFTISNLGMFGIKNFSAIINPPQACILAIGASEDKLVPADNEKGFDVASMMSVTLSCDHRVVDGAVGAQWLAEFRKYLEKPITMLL
UniProt Q8WVH0, sequence (whole entry, looked up): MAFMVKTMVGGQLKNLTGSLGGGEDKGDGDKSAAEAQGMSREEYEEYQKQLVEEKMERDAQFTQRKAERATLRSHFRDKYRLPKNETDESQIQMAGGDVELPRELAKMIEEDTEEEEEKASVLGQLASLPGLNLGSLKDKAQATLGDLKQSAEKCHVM
UniProt O60832, sequence (whole entry, looked up): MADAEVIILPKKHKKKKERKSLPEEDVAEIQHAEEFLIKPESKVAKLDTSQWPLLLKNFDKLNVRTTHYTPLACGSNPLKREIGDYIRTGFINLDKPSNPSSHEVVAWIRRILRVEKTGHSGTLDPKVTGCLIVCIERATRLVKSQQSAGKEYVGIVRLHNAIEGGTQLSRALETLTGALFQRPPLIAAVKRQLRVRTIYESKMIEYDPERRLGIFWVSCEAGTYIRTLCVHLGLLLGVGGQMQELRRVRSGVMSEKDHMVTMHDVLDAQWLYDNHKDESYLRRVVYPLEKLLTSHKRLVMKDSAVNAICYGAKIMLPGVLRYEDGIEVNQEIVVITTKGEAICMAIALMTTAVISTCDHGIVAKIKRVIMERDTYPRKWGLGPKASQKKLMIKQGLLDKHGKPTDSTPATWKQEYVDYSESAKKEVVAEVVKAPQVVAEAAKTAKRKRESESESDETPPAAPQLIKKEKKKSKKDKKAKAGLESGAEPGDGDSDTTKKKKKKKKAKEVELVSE
UniProt Q9NY12, sequence (whole entry, looked up): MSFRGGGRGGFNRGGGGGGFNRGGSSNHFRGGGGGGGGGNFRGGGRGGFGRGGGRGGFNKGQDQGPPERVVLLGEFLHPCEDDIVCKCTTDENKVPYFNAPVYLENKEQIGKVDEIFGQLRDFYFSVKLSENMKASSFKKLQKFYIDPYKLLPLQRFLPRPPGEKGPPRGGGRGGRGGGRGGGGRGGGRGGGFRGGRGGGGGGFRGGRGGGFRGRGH
UniProt P49327, sequence (whole entry, looked up): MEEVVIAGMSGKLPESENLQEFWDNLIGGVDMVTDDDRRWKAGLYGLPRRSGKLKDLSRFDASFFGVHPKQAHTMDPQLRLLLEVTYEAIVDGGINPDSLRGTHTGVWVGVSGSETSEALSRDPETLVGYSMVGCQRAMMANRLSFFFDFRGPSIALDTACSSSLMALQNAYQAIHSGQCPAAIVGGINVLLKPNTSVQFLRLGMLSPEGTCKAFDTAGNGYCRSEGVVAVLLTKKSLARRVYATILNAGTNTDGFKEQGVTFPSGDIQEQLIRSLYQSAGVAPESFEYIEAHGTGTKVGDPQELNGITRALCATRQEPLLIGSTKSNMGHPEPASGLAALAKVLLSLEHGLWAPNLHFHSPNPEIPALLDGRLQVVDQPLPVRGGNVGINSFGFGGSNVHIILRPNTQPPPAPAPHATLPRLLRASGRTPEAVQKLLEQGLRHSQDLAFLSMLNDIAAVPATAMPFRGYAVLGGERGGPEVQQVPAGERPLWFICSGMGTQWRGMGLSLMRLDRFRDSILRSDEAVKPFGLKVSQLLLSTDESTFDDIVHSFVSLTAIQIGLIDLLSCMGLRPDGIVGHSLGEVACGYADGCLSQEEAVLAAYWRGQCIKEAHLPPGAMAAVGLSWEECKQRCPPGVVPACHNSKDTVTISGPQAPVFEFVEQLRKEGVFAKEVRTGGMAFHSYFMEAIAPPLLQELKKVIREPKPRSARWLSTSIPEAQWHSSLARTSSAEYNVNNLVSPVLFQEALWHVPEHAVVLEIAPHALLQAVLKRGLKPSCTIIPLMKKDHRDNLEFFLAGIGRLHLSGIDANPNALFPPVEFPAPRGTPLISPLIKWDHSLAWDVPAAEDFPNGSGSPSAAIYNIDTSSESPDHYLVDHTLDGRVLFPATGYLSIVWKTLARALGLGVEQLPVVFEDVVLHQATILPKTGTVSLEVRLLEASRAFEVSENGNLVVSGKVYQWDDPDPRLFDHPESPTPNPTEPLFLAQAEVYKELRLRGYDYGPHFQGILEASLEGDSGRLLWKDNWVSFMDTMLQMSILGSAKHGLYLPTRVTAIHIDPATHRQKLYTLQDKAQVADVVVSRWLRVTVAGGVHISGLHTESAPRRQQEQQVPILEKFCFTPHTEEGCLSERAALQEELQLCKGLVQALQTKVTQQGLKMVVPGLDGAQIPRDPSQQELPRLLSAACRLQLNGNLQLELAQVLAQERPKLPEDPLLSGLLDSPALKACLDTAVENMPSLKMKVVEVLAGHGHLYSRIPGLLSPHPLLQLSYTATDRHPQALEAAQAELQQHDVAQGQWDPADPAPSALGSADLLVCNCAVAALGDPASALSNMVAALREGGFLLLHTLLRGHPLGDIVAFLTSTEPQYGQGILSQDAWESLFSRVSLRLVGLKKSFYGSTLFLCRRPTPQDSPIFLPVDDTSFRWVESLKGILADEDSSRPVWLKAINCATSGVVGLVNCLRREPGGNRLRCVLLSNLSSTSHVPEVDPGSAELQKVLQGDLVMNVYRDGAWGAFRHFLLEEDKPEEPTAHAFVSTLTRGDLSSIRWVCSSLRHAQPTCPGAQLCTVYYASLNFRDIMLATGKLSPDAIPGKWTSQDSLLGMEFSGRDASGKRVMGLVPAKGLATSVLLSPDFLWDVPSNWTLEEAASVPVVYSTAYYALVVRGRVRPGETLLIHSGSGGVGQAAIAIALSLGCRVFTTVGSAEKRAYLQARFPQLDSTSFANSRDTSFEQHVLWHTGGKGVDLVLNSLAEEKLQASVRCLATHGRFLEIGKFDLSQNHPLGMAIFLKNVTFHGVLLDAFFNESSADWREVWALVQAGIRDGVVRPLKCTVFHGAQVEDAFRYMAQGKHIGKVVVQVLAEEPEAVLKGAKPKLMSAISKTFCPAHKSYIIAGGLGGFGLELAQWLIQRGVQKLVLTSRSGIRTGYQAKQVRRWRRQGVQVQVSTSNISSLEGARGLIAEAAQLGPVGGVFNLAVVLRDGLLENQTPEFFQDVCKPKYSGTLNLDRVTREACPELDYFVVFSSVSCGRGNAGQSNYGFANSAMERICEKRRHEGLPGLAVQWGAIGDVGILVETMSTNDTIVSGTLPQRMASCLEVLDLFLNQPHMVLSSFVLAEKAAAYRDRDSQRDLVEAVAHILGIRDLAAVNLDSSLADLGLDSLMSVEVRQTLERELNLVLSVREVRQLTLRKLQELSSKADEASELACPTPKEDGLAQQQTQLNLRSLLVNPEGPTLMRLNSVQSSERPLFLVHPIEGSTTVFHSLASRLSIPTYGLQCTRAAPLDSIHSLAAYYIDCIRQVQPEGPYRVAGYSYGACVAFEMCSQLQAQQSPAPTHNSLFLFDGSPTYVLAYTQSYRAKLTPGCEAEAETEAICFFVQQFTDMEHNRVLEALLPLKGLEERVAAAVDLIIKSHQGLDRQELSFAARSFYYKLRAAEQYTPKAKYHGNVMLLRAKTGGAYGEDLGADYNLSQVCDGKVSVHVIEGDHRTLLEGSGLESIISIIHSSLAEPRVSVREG

Molecule	tested on	test	test system	conditions	how to read	measurement	value
FGG (Homo sapiens, UniProt P02679)	RANBP3L (Homo sapiens, UniProt Q86VV4)	cross-linking MS		together with: DSSO		cross-linked residues	K231 to K311
SMC2 (Homo sapiens, UniProt O95347)	SMC4 (Homo sapiens, UniProt Q9NTJ3)	cross-linking MS	cells	together with: BDP-NHP		cross-linked residues	K677 to K598
RFC1 (Homo sapiens, UniProt P35251)	Histone H4 (Homo sapiens, UniProt P62805)	cross-linking MS		together with: DSSO		cross-linked residues	K845 to K78
TCP1 (Homo sapiens, UniProt P17987)	CCT4	cross-linking MS	cells	together with: iqPIR		cross-linked residues	K515 to K55
TCP1 (Homo sapiens, UniProt P17987)	CCT4	cross-linking MS		together with: DSSO		cross-linked residues	K126 to K55
B1 (human CCT2)	PP6C (human)	co-immunoprecipitation, IP-MS	CYB5R4 knockout cells	concentration not given	baseline: CYB5R4 knockout over parental	log2 fold change	-0.24
FGB (Homo sapiens, UniProt P02675)	PCSK5 (Homo sapiens, UniProt Q92824)	cross-linking MS		together with: DSSO		cross-linked residues	K77 to K587
PES1 (Homo sapiens, UniProt O00541)	BOP1 (Homo sapiens, UniProt Q14137)	cross-linking MS	cells	together with: iqPIR		cross-linked residues	K533 to K711
B2 (human ribophorin I)	PP6C (human)	co-immunoprecipitation, IP-MS	CYB5R4 knockout cells	concentration not given	baseline: CYB5R4 knockout over parental	log2 fold change	0.7
CTTN (Homo sapiens, UniProt Q14247)	HSP90AB4P (Homo sapiens, UniProt Q58FF6)	cross-linking MS		together with: DSSO or DMTMM		cross-linked residues	D177 to K194
VIM (Homo sapiens, UniProt P08670)	PRPH (Homo sapiens, UniProt P41219)	cross-linking MS	cells	together with: BDP-NHP		cross-linked residues	K373 to K290
ALB (Homo sapiens, UniProt P02768)	MAP1A (Homo sapiens, UniProt P78559)	cross-linking MS		together with: DSSO		cross-linked residues	K305 to K1490
TCP1 (Homo sapiens, UniProt P17987)	CCT2 (Homo sapiens, UniProt P78371)	cross-linking MS	cells	together with: BDP-NHP		cross-linked residues	K126 to K46
DKC1 (Homo sapiens, UniProt O60832)	GAR1 (Homo sapiens, UniProt Q9NY12)	cross-linking MS	cells	together with: iqPIR		cross-linked residues	K191 to K112
FGA (Homo sapiens, UniProt P02671)	MAP4 (Homo sapiens, UniProt P27816)	cross-linking MS		together with: DSSO		cross-linked residues	K243 to K852
colistin	Enterobacter cloacae		clinical isolate RKI 146/09			MIC	2 µg/mL
HSP90AB1 (Homo sapiens, UniProt P08238)	PPIA (Homo sapiens, UniProt P62937)	cross-linking MS	cells	together with: iqPIR		cross-linked residues	K435 to K76
HSPA9 (Homo sapiens, UniProt P38646)	PSAT1 (Homo sapiens, UniProt Q9Y617)	cross-linking MS	cells	together with: BDP-NHP		cross-linked residues	K314 to K127
PDHX (Homo sapiens, UniProt O00330)	DLAT (Homo sapiens, UniProt P10515)	cross-linking MS	cells	together with: iqPIR		cross-linked residues	K488 to K473
SLC4A1 (Homo sapiens, UniProt P02730)	PGM2 (Homo sapiens, UniProt Q96G03)	cross-linking MS		together with: DSSO or DMTMM		cross-linked residues	D25 to K91
NUP93 (Homo sapiens, UniProt Q8N1F7)	NUP205 (Homo sapiens, UniProt Q92621)	cross-linking MS	cells	together with: BDP-NHP		cross-linked residues	K106 to K1548
FASN (Homo sapiens, UniProt P49327)	CPLX3 (Homo sapiens, UniProt Q8WVH0)	cross-linking MS	cells	together with: iqPIR		cross-linked residues	K1704 to K14

Some of these lines once more:
Molecule	tested on	test	test system	conditions	how to read	measurement	value
B1 (human CCT2)	PP6C (human)	co-immunoprecipitation, IP-MS	CYB5R4 knockout cells	concentration not given	baseline: CYB5R4 knockout over parental	log2 fold change	-0.24
FGB (Homo sapiens, UniProt P02675)	PCSK5 (Homo sapiens, UniProt Q92824)	cross-linking MS		together with: DSSO		cross-linked residues	K77 to K587
PES1 (Homo sapiens, UniProt O00541)	BOP1 (Homo sapiens, UniProt Q14137)	cross-linking MS	cells	together with: iqPIR		cross-linked residues	K533 to K711
